Measured values of several laboratories.
Each line is one published result; not all experiments were run side by side. Several values in a cell are separate wells, animals, samples, runs or records. ± marks the error that the study gave.
UniProt O96017, sequence (whole entry, unmodified, looked up): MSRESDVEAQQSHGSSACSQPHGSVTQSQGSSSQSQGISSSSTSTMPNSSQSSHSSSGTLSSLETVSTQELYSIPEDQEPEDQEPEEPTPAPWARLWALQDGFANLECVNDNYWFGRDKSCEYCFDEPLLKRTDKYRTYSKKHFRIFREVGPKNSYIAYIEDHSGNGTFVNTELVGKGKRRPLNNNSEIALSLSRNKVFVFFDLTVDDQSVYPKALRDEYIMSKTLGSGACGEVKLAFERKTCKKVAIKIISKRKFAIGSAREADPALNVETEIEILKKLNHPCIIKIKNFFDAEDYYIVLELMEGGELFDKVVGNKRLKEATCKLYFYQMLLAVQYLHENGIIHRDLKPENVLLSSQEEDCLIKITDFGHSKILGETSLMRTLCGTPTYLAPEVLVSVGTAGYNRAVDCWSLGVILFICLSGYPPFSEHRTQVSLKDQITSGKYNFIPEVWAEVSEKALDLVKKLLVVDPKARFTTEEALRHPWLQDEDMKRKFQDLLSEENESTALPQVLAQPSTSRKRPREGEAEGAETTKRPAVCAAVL

| Structure (SMILES) | target or system | assay | test system | conditions | how to read | quantity | value |
| --- | --- | --- | --- | --- | --- | --- | --- |
| O=C(C[Se]C(=O)c1ccco1)Nc1cccc(C(F)(F)F)c1 | NCI60 ovarian subpanel | total growth inhibition, inhibitor |  | five-dose |  | mean TGI | 5.21 µM |
| CC(C)CC(O)(CC(C)C)c1cn(C(=O)N2CCCC2)nn1 | mouse T-cells | SILAC proteomics, item: SERF2 |  | 1 nM, 6 h, unit not given | relative to: DMSO | protein level | 1.05 |
| O=C(C[Se]C(=O)c1ccccc1Nc1ccccc1)Nc1cccc(C(F)(F)F)c1 | NCI60 ovarian subpanel | cytotoxicity, inhibitor |  | five-dose |  | CC50 | 7.79 µM |
| C#CCN1C(=O)C(CC#C)(C(=O)OCC)Oc2ccccc21 (centres unmarked) | HEK293T | cytotoxicity, CCK-8 |  | 0.78 µM, 72 h |  | inhibition | 0% |
| NC(=O)N/N=C/c1ccc(OCc2ccccc2)cc1 | IMR-32 |  |  | 200 µg/mL, 24 h | higher = more activity | catalase activity (OD450) | 0.191 a.u. |
| CS(C)(=O)=Nc1ccc(-c2ccc(-c3nc4cc(O[C@@H]5CO[C@H]6[C@@H]5OC[C@H]6O)[nH]c4cc3F)cc2)cc1 | CHEK2 (Homo sapiens, UniProt O96017, R145W) | enzyme activity, inhibitor |  | 10 µM |  | inhibition | -8% |
| O=C(O)c1ccc(-c2nc(-c3ccccc3Cl)c3sccn23)cc1 | K562 | erythroid differentiation, flow cytometry |  | 0.1 mM, 72 h | relative to: untreated | CD235a fluorescence intensity | 0.73 fold change and 1.11 fold change and 1.18 fold change |
| O=C(C[Se]C(=O)c1ccc2ccccc2n1)Nc1cccc(C(F)(F)F)c1 | NCI60 ovarian subpanel | cytotoxicity, inhibitor |  | five-dose |  | CC50 | 9.42 µM |
| CC(C)C[C@H](NC(=O)[C@H](CC(=O)O)NC(=O)CNC(=O)[C@@H](N)CCCNC(=N)N)C(=O)N[C@@H](C)C(=O)N[C@H](C(=O)N[C@@H](CC(C)C)C(=O)N[C@@H](CCCNC(=N)N)C(=O)N[C@@H](CCC(N)=O)C(=O)N[C@@H](CC(C)C)C(=O)N[C@@H](C)C(=O)N[C@@H](CCC(N)=O)C(=O)N[C@@H](CCC(=O)O)C(=O)N[C@@H](CC(=O)O)C(=O)NCC(=O)N[C@H](C(=O)N[C@H](C(=O)NCC(=O)N[C@H](C(=O)N[C@@H](CCCNC(=N)N)C(=O)NCCOCCOCCOCCOCCOCCOCCOCCOCCOCCOCCOCCOCCC(=O)N[C@@H](CS)C(N)=O)C(C)C)C(C)C)C(C)C)[C@@H](C)O | H157 lung squamous carcinoma | cell binding, phage binding, item: output/input phage |  | 10 min, 37 °C | relative to: control phage | selectivity ratio | 8.7 ± 4.1 |
| Cc1cc(Oc2nc(N3CC[C@@H](c4ccncc4)C3)ncc2F)[nH]n1 | SK-N-SH | cell proliferation |  |  |  | IC50 | > 100 µM |
| COc1ccccc1-c1n[nH]c2nc(NC3CCN(C(=O)Cc4ccc(F)cc4F)CC3)ncc12 |  | bead binding, competition bead pull-down, item: LINJ.25.2090 | Leishmania donovani axenic amastigote extract | 10 µM | relative to: vehicle | relative abundance | 1.46 |
| [Cl-].[Cl-].[Ru+2].c1ccc(-c2ccccn2)nc1.c1ccc(-c2ccccn2)nc1.c1ccc2cc3nc4c5cccnc5c5ncccc5c4nc3cc2c1 | SK-MEL-28 |  |  | 1% O2, together with: green light 523 nm, 100 J/cm2 | relative to: dark over light EC50 | phototoxicity index | 1 |
| CC(C)[C@H](NC(=O)[C@H](CCCNC(=N)N)NC(=O)[C@@H]1CCCN1C(=O)[C@@H](NC(=O)[C@H](C)NC(=O)[C@H](Cc1ccc(O)cc1)NC(=O)[C@H](CCC(N)=O)NC(=O)[C@H](CCCCN)NC(=O)[C@H](CCCNC(=N)N)NC(=O)[C@@H]1CCCN1C(=O)[C@H](CCC(=O)O)NC(=O)[C@@H](NC(=O)[C@H](C)N)[C@@H](C)O)[C@@H](C)O)C(=O)N[C@@H](Cc1ccccc1)C(=O)N[C@@H](Cc1c[nH]c2ccccc12)C(=O)N[C@H](C(=O)N[C@@H](CC(=O)O)C(=O)N[C@@H](C)C(=O)N1CCC[C@H]1C(=O)NCC(=O)NCCOCCOCCOCCOCCOCCOCCOCCOCCOCCOCCOCCOCCC(=O)N[C@@H](CS)C(N)=O)[C@@H](C)O | H1648 | phage binding |  | 10 min, 37 °C | relative to: control phage | selectivity ratio | 1.1 ± 0.26 |
| O=C1NC2(CC2)COc2ncc(F)cc2[C@H]2COCCN2c2ccn3ncc1c3n2 |  |  | Sprague-Dawley rat, female, heart | oral, 2.5 mg/kg/day, 4 weeks dosing, end of recovery |  | organ-to-body weight ratio | 0.358 ± 0.025% |
| CSCC[C@H](NC(=O)[C@@H](NC(=O)[C@H](CCC(N)=O)NC(=O)[C@H](CO)NC(=O)[C@@H](N)C(C)C)[C@@H](C)O)C(=O)N[C@@H](CCCNC(=N)N)C(=O)N[C@@H](CCC(N)=O)C(=O)N[C@H](C(=O)N[C@@H](C)C(=O)N[C@H](C(=O)N1CCC[C@H]1C(=O)N[C@@H](CC(C)C)C(=O)N[C@@H](CC(C)C)C(=O)N[C@@H](Cc1c[nH]c2ccccc12)C(=O)N[C@@H](Cc1ccccc1)C(=O)N[C@@H](Cc1c[nH]c2ccccc12)C(=O)N[C@H](C(=O)NCC(=O)N[C@@H](CO)C(=O)N[C@@H](CC(C)C)C(=O)NCCOCCOCCOCCOCCOCCOCCOCCOCCOCCOCCOCCOCCC(=O)N[C@@H](CS)C(N)=O)[C@@H](C)O)C(C)C)[C@@H](C)O | HCC78 | phage binding |  |  | relative to: targeting over control phage | selectivity ratio | 0.96 ± 0.56 |
| CCOC(=O)C1(Cc2ccccc2)Oc2cc(F)ccc2N(Cc2ccccc2)C1=O (centres unmarked) | HEK293T | cytotoxicity, CCK-8 |  | 25 µM, 72 h |  | inhibition | 0.21 ± 0.22% |
| Cc1cccc(-c2cccc(C)n2)n1.Cc1cccc(-c2cccc(C)n2)n1.F[P-](F)(F)(F)(F)F.F[P-](F)(F)(F)(F)F.[Ru+2].c1ccc2c(-c3nc4c5cccnc5c5ncccc5c4[nH]3)cccc2c1 | SK-MEL-28 | cell growth or viability, resazurin |  | dark |  | EC50 | 53.8 µM |
| O=C(C[Se]C(=O)c1cccs1)Nc1cccc(C(F)(F)F)c1 | NCI60 renal subpanel | cell growth, inhibitor |  | five-dose |  | GI50 | 1.7 µM |
| CC(C)(C)C(=O)OCOP(=O)(OCOC(=O)C(C)(C)C)C1CCCN(O)C1=O (centres unmarked) | OVCAR-8 |  |  |  |  | log GI50 | -6.52 log M |
| COc1ccccc1-c1ccncc1C(=O)Nc1nnc(OCc2ccc(Cl)cc2)s1 | RPE-1 BRCA1 WT parental |  |  | 4 µM, run 2 | relative to: untreated | colony survival | 71.1% |
| N[C@H](C(=O)N1CCCC1)C1CCN(c2nccc3c(-c4ncc(Cl)cc4Cl)cccc23)CC1 | human neutrophils | protein citrullination, inhibitor, flow cytometry, item: citrullinated histone H3 |  | 316 nM, together with: ionomycin |  | inhibition | 31.1% and 33.6% and 36.1% and 24.9% |
| O=C(C[Se]C(=O)c1ccccc1)Nc1cccc(C(F)(F)F)c1 | NCI60 ovarian subpanel | total growth inhibition, inhibitor |  | five-dose |  | mean TGI | 5.3 µM |
| C#CCNC(=O)c1ccc(S(=O)(=O)N[C@@H](CCCCNC(C)=S)C(=O)N[C@@H](CCCNC(=N)N)C(=O)N[C@@H](CC2CCCCC2)C(=O)N[C@H](CCCCN)C(=O)N[C@@H](CC2CCCCC2)C(N)=O)cc1 | Jurkat | cell growth or viability, MTT |  | 72 h |  | EC50 | > 60 µM |
| CC(C)Cc1ccc(C(C)C(=O)[Se]CC(=O)Nc2cccc(C(F)(F)F)c2)cc1 (centres unmarked) | NCI60 renal subpanel | cytotoxicity, inhibitor |  | five-dose |  | CC50 | 8.04 µM |
| CSCC[C@H](NC(=O)[C@H](CC(C)C)NC(=O)[C@H](CCC(N)=O)NC(=O)[C@H](C)NC(=O)[C@H](Cc1c[nH]c2ccccc12)NC(=O)[C@H](Cc1ccc(O)cc1)NC(=O)[C@H](CCC(=O)O)NC(=O)[C@H](CC(C)C)NC(=O)[C@H](Cc1ccccc1)NC(=O)[C@@H](NC(=O)[C@H](CC(C)C)NC(=O)[C@H](CCCCN)NC(=O)CCCCCNC(=O)[C@H](CCCCN)NC(=O)[C@H](CCC(N)=O)NC(=O)[C@H](CCSC)NC(=O)[C@H](CC(C)C)NC(=O)[C@]1(C)CCCC=CCCC[C@](C)(NC(=O)[C@H](CC(C)C)NC(=O)[C@H](Cc2ccccc2)NC(=O)[C@@H](NC(=O)[C@H](CC(C)C)NC(=O)[C@H](CCCCN)NC(C)=O)[C@@H](C)O)C(=O)N[C@@H](Cc2ccc(O)cc2)C(=O)N[C@@H](Cc2c[nH]c3ccccc23)C(=O)N[C@@H](C)C(=O)N1)[C@@H](C)O)C(=O)N[C@@H](CCC(N)=O)C(=O)N[C@@H](CCCCN)C(N)=O | human tumour cells | cell growth, CCK-8 |  | 16 µM |  | inhibition | inhibited |
| O=C(C[Se]C(=O)C12CC3CC(CC(C3)C1)C2)Nc1cccc(C(F)(F)F)c1 | NCI60 NSCLC subpanel | NCI60 five-dose screen |  |  |  | CC50 | 22.1 µM |
| CC(=O)NCSC[C@H](NC(=O)[C@@H]1CCCN1C(=O)[C@H](C)NC(=O)[C@@H](NC(=O)CNC(=O)[C@@H](NC(=O)[C@H](Cc1c[nH]c2ccccc12)NC(=O)[C@H](C)NC(=O)CNC(=O)[C@H](CO)NC(=O)[C@H](C)NC(=O)[C@@H]1CCCN1C(=O)[C@H](Cc1c[nH]c2ccccc12)NC(=O)[C@H](C)NC(=O)[C@H](C)NC(=O)[C@@H](N)Cc1ccc(O)cc1)[C@@H](C)O)[C@@H](C)O)C(=O)N[C@@H](CO)C(=O)N[C@@H](C)C(=O)NCC(=O)N[C@H](C(=O)NCCOCCOCCOCCOCCOCCOCCOCCOCCOCCOCCOCCOCCC(=O)N[C@@H](CS)C(N)=O)[C@@H](C)O | H1264 lung adenocarcinoma | cell binding, phage binding, item: output/input phage |  | 10 min, 37 °C | relative to: control phage | selectivity ratio | 7.3 ± 2.6 |
| COc1ccc2c(c1)c(CC(=O)[Se]CC(=O)Nc1cccc(C(F)(F)F)c1)c(C)n2C(=O)c1ccc(Cl)cc1 | NCI60 ovarian subpanel | cytotoxicity, inhibitor |  | five-dose |  | CC50 | 9.05 µM |
| O=c1n(CCNCCOS(=O)(=O)c2ccccc2)c(=O)n(S(=O)(=O)c2ccccc2)c(=O)n1S(=O)(=O)c1ccccc1 | A549 | cell growth or viability, MTT |  | 25 µg/mL, 48 h |  | viability | 44% |
